Values quoted from earlier work that unrelated publications cite.
Compare with care: the assays were run in different laboratories. “And” joins repeats or separate records; there may be more than shown.

| SMILES | test | setting | pKa |
| --- | --- | --- | --- |
| CNC(C)Cc1ccc2c(c1)OCO2 (stereo not drawn) | – | – | 10 |
| O=C(O)C(F)(F)C(F)(F)F | conductometry, literature value | – | 0.38 and 0.34 |
| N[C@@H]1C[C@H]1c1ccccc1 | – | – | 8.5 |
| O=S(=O)(O)C(F)(F)C(F)(F)C(F)(F)C(F)(F)C(F)(F)C(F)(F)C(F)(F)C(F)(F)F | ESI-MS, literature value | – | < 1 |
| CCN(CC)C(=O)[C@@H]1C=C2c3cccc4[nH]cc(c34)C[C@H]2N(C)C1 | – | – | 6.37 |
| Oc1c(Cl)cc(Cl)c(Cl)c1Cc1c(O)c(Cl)cc(Cl)c1Cl | – | phenol group | ~5 |
| CC1(C)C2CCC1(CS(=O)(=O)O)C(=O)C2 (single isomer, unassigned; (+)) | – | – | 1.2 |
| CC(C)C[C@H](NC(=O)CNC(=O)c1cc(Cl)ccc1Cl)B(O)O | – | – | 8.2 |
| O=C(O)C(F)F | potentiometry | – | 1.24 |
| c1c[nH]cn1 | – | conjugate acid | ~7 |
| c1nc[nH]n1 | – | – | 10.3 |
| CNC(C)Cc1ccc2c(c1)OCO2 (stereo not drawn) | – | basic | 10.1 |
| O=C(O)C(F)(F)C(F)(F)C(F)(F)C(F)(F)C(F)(F)C(F)(F)C(F)(F)F | differential refractometry, literature value | – | 2.8 |
| COc1ccc(CC(C)N)cc1 (stereo not drawn) | – | – | 10 |
| CCCSc1ccc2nc(NC(=O)OC)[nH]c2c1 | – | – | 4.27 |

Excerpt of the above:
| SMILES | test | setting | pKa |
| --- | --- | --- | --- |
| c1c[nH]cn1 | – | conjugate acid | ~7 |
